Results collected from several papers.
Parts stem from different laboratories: compare values within a part only. Changes are numbered by the printed parent chain.

Set 1
Target: TAR DNA-binding protein 43, full length, His tag (TARDBP, Homo sapiens, UniProt Q13148, residues 1-414)
Technique: RNA Bind-n-Seq
Molecule type: RNA
Medium: in vitro
Concentration: 20 nM
Notes: 6-mer, flanks averaged, single round
Together with: 150 mM KCl
Baseline: input library
Direction: higher = stronger binding
`GAGGUA`: “6-mer enrichment (R)” 1.49.
`AUCUAA`: “6-mer enrichment (R)” 0.57.
`CCGAAA` — result for “6-mer enrichment (R)”: 0.643.
Under “6-mer enrichment (R)”, `CUCCUU` is recorded as 0.597.
For `CGGCUC`, “6-mer enrichment (R)” read 0.793.
`GCGCGU` — result for “6-mer enrichment (R)”: 1.45.
`ACCCCA`: “6-mer enrichment (R)” 0.652.
Under “6-mer enrichment (R)”, `GACUGA` is recorded as 0.929.
`CAGGUG`: “6-mer enrichment (R)” 1.51.
Under “6-mer enrichment (R)”, `GAUCGG` is recorded as 1.47.
`CACUGC` — result for “6-mer enrichment (R)”: 0.676.
For `AGGGCU`, “6-mer enrichment (R)” read 1.93.
For `CUUGAU`, “6-mer enrichment (R)” read 0.633.
Under “6-mer enrichment (R)”, `CAUACU` is recorded as 0.566.
Under “6-mer enrichment (R)”, `UUGGAA` is recorded as 0.786.
For `AGUUAG`, “6-mer enrichment (R)” read 0.811.
`CGGGCA`: “6-mer enrichment (R)” 2.2.

Set 2
Target: ABI1, truncated, D143A, DHFR fusion (Arabidopsis thaliana)
Technique: DHFR PCA, deep sequencing
Medium: yeast
Notes: methotrexate growth selection, single substitutions
Together with: (+)-ABA 0.032 µM
Baseline: wild-type fitted maximum
Direction: higher = stronger binding
Starting sequence: PYL1, truncated, DHFR fusion (Arabidopsis thaliana); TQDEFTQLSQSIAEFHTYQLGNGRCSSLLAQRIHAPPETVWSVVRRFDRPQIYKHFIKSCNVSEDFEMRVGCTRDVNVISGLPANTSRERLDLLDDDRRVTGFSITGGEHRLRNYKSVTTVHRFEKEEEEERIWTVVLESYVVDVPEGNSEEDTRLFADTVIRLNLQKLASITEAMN; partner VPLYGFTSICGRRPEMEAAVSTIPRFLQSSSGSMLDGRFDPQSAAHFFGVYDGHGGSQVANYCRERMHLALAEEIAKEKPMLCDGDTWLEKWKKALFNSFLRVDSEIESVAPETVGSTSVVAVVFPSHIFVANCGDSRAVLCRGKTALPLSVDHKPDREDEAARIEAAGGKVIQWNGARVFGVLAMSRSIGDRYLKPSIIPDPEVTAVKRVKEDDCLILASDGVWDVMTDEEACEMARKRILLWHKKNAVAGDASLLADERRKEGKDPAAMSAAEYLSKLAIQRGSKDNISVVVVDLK
For `R99Q`, “relative binding score” read 8.24%.
`R163P`: “relative binding score” 7.11%.
`F56Y` — result for “relative binding score”: 6.55%.
For `S117K`, “relative binding score” read 0.65%.
`H55Q`: “relative binding score” 29%.
`D92A` — result for “relative binding score”: 0.896%.
`V142T` — result for “relative binding score”: 2.7%.
Under “relative binding score”, `K58N` is recorded as -0.0415%.
`L94F`: “relative binding score” 37.7%.
Under “relative binding score”, `Q7N` is recorded as 16.4%.
Under “relative binding score”, `F47Y` is recorded as -4.58%.
`E130V` — result for “relative binding score”: 20.9%.
`A35W` — result for “relative binding score”: -2.7%.
Under “relative binding score”, `R90V` is recorded as 4.33%.
`L156T` — result for “relative binding score”: 17.3%.
`E174R`: “relative binding score” -3.89%.
Under “relative binding score”, `E147V` is recorded as 9.73%.
`T101H`: “relative binding score” -1.75%.
Under “relative binding score”, `L94P` is recorded as 4.45%.

Set 3
Target: RING finger protein unkempt homolog, zinc fingers 1-6, GST-SBP tag (UNK, Homo sapiens, UniProt Q9C0B0, residues 30-357)
Technique: RNA Bind-n-Seq
Molecule type: RNA
Medium: in vitro
Concentration: not given
Notes: RNA with constant flanks, ends assumed
Baseline: input RNA pool
Direction: higher = stronger binding
Residues (chain): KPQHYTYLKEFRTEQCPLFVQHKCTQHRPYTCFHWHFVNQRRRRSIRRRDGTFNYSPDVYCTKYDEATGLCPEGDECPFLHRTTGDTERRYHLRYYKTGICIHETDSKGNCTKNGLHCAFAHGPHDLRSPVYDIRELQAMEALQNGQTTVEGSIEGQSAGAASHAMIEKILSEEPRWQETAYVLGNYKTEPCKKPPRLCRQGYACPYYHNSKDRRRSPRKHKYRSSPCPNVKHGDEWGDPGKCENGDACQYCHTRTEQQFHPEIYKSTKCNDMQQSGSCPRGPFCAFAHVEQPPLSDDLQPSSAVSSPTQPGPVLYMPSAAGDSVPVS
`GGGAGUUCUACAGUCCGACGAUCUGGCCAUAUUUCCCUAGACGUUAUCCUCUGCCUUGUCAGUUUGUUUGUCUGUGGCUUUUUUUCCGGGGAGGGGGAAGAGAUGGGCAGCUGUAACAAGUAGCCCAGAUAGAUCUAUGGGUGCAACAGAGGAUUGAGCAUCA` gave a bound/input enrichment of 0.842 ratio.
`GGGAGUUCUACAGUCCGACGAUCCAAACGUGGGUGUUGGUGUGGACGGGGCGCAGAUCUCCGUGGAUGAACUGCGUCUGGACUCUCCGAUUCAUAAAAUAUUCGAGGGUUUGGGAGUCACAGACCCUCCCCUCUCCUCAGUGCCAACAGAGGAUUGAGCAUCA` has a bound/input enrichment of 0.114 ratio.
`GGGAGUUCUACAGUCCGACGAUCACAGAUUUACUGAGAUUAUUUGAAUAUGGAGGUUUCCCACCAGAAGCCAACUAUCUUUUCUCCGGAGAUUAUGUGGACAGAGGAAAGCAGUCUUUGGAAACCAUUUGUUUGCUAUUGGCUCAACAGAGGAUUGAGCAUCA` has a bound/input enrichment of 0.622 ratio.
With `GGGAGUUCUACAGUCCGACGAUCCAGUCACCGCUUUCUUCUCUAAAACAACUUCUUUUUUUUUUUUAACACAUCUUUUCCAUGCCGCAACCAAAGCCAGAGCCAUGUUCUAACCCUAUGCCCUUCUCAAGCCUGGCUGCUCACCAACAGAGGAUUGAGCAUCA` the bound/input enrichment was 1.5 ratio.
`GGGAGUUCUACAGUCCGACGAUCAACAGAAUCAAACUAAGCCAUGUAUGAGGGUAAUCGAGAUGAGGAUAUUAACUCAAAAGAAACCGGGUGAUUUUUAAAGGAUUAAUAAAAUUCUGAAAUGUUAAGUAGAAGAUUACAUUGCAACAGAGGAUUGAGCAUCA` gave a bound/input enrichment of 0.408 ratio.
For `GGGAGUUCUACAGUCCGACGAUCAAGAGCACCUCAGGAAGCACUGGGGCGGGUGACACUCGUCUCGGCGACCAAGGGCAGUGCCCGCAUCUGUCCGCAUUGCCUAUGCUCCGUUCAAUCCUGAACUAAAGCGUACACUUCUUCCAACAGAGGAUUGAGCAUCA`, the bound/input enrichment was 0.0338 ratio.
`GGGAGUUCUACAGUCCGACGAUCCACCAUGGCUGUGUUUGUCGUGCUCCUGGCGUUGGUGGCGGGUGUUUUGGGGAACGAGUUCCGUAUAUUAAAAUCACCAGGGUCUGUUGUUUUCCGAAAUGGAAAUUGGCCUAUACCAGGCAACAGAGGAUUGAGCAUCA` gave a bound/input enrichment of 0.279 ratio.
`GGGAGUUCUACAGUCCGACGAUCCAACAGCAGCGAUUACUAGACAUUGCCAAGAAGGAAAAUGUCAAAAUUAGUGAUGAGGGAACCGCUUAUCUUGUUAAAGUGUCAGAAGGAGACUUAAGAAAAGCCAUUACAUUUCUUCAACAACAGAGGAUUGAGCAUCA` gave a bound/input enrichment of 0.302 ratio.
`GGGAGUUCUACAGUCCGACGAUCGAGUGGCCCCUGCUAGAUUCUUCCCAGAGAAAACUGUACAAAGAUGUAAUGCUGGAGAAUUACCGCAAUCUAAGUUCACUGGGUUAUCAGGUUGGCAAACCCCGCCUCAUCUCACACCUACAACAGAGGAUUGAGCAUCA` gave a bound/input enrichment of 0.21 ratio.
For `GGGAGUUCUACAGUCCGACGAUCUCCAGUCCAAGGGAAGAGGAGAUCCCGCCCCUCUUUUGGGGUCUGGAUCCUGUGUUUCCCGCCUUUGCAAAACUCUACAUCAAGGAUAUCCUGGAGAUGAAGGAGUCCCAACAAGUGCCACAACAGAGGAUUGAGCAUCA`, the bound/input enrichment was 0.0927 ratio.
`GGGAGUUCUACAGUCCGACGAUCAAUUCACAGGAAGUGAGAUUCGUGUGAGGGAUGACAAGAUGCCUUUGGCGCACCUUGCAACCGCUGUUGAAGCUGUUGGUUGGGCACAUCCAGAUACAAUCUGUCUCAUGGUUGCAAACACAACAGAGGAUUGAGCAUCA` gave a bound/input enrichment of 0.132 ratio.

Set 4
Target: Centromere-binding protein 1, full length, His-tagged (CBF1, Saccharomyces cerevisiae, UniProt P17106, residues 1-351)
UniProt P17106, sequence (whole entry, looked up): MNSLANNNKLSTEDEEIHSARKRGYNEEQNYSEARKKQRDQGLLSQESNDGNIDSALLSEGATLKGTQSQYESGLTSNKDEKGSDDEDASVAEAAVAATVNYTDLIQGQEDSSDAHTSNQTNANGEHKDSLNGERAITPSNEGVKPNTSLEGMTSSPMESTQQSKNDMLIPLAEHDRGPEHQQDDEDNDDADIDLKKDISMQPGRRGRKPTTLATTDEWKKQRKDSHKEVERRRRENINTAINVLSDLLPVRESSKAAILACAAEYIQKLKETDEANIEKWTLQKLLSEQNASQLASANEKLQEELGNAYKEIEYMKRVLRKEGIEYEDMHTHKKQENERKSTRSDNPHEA
Technique: competition protein-binding microarray
Molecule type: double-stranded DNA, one strand shown
Medium: in vitro
Concentration: 2 µM
Notes: whole 60-bp probe, lowest competitor level
Together with: Pho4 competitor, 0.05 µM
Direction: higher = stronger binding
For `GGTTTTTGAAATCATACCTGCCAAGCTTGCTGCACTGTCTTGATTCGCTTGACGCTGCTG`, the fluorescence intensity was 80.6 a.u.
For `CTTTCCCGATCTTGGATTGTGGGTGTAGCACATTTGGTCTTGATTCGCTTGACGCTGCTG`, the fluorescence intensity was 65.8 a.u.
For `ATTCATGTTTGGCTACTCGTGCTTTCTTCGAAGAATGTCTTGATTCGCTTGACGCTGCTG`, the fluorescence intensity was 107 a.u.
For `TGTGGACAGGGTAGATTCGGAGCCGACGCTATAATTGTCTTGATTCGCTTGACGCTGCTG`, the fluorescence intensity was 53.1 a.u.
With `CTTTCCCGATCTTGGGAAGTGGGTGTAGCACATTTGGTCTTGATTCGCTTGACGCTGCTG` the fluorescence intensity was 64.3 a.u.
For `CATACCCAACCTTGTCTAGTGGGTGAAGATATTTGTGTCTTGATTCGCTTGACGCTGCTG`, the fluorescence intensity was 78.9 a.u.
`TTTAATGGTCCAAAGCATGTGCTAAACTGCCACAGAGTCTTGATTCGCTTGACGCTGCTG` has a fluorescence intensity of 116 a.u.
`AGTGGTTGCGTTTGCCACGTACGAAAAGTTGTTACCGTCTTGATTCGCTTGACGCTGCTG` has a fluorescence intensity of 73.3 a.u.
`GTCTTGTCTCATTGTCACAGGACTTTCCCCACTTCAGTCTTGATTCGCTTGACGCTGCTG` gave a fluorescence intensity of 113 a.u.
With `CATACCCAACCTTGTCGGGTGGGTGAAGATATTTGTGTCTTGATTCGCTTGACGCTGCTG` the fluorescence intensity was 76.8 a.u.
For `ACCCAGTTCACAAGCACCGTGAAGCTAGAGGTTTGAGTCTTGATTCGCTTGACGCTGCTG`, the fluorescence intensity was 61.1 a.u.
The fluorescence intensity of `ACAAACTTTTAAAGCTTCGTGCTTTGGATCAACGAAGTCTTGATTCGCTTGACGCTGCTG` is reported as 83.1 a.u.
`TGTCGTCTCGGTTTTCACGTTGCTAATCGAACGATCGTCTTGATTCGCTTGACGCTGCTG` has a fluorescence intensity of 90.8 a.u.
For `TGTTATTATTGACAACATGTGTAAGTTGGTCGAAGAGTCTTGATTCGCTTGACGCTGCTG`, the fluorescence intensity was 129 a.u.
The fluorescence intensity of `AATCCTGGGGTACCGGTCGTGCCGACGCTCGTATTCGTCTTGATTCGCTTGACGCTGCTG` is reported as 40.8 a.u.
`GTCTTGTCTCATTGTGGGGTGGGTGTCCCCACTTCAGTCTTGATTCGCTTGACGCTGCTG` gave a fluorescence intensity of 88.2 a.u.
`TGAAGAGTACTTACTGATGTGATATTCGACAGGATCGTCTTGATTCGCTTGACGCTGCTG` has a fluorescence intensity of 76.3 a.u.

Set 5
Target: CCNF, cyclin fold, Cln2 fusion (human)
Technique: yeast growth competition, sequencing
Medium: yeast
Notes: strong parent motif
Baseline: not given
Direction: higher = stronger binding
Starting sequence: CDC6 docking peptide (human); TLKGRRLVFDNQL
For `TAKGRRLVFDNQL [L2A]`, “normalised enrichment score” read 6.79.
`TLKGRSLVFDNQL [R6S]`: “normalised enrichment score” 4.93.
`TLKGSRLVFDNQL [R5S]`: “normalised enrichment score” -0.27.
`TLKGRRLVSDNQL [F9S]`: “normalised enrichment score” 0.88.
Under “normalised enrichment score”, `TLKGRRLVRDNQL [F9R]` is recorded as 0.18.
Under “normalised enrichment score”, `TLKGRRLVFENQL [D10E]` is recorded as 6.05.
For `TLKGRYLVFDNQL [R6Y]`, “normalised enrichment score” read 4.83.
`TLKGRRLVFMNQL [D10M]` — result for “normalised enrichment score”: 8.31.
Under “normalised enrichment score”, `TLKGKRLVLDNQL [R5K F9L]` is recorded as 2.63.
`TLKGRRLVFDNNL [Q12N]`: “normalised enrichment score” 8.8.
`TLKGRRLRFDNQL [V8R]`: “normalised enrichment score” 8.17.
Under “normalised enrichment score”, `TLKGRRLVFDNHL [Q12H]` is recorded as 9.85.
Under “normalised enrichment score”, `TLKMRRLVFDNQL [G4M]` is recorded as 4.2.
For `TLKGRWLVFDNQL [R6W]`, “normalised enrichment score” read 2.2.
`WLKGRRLVFDNQL [T1W]`: “normalised enrichment score” 9.29.
`TLKGRRLVFDFQL [N11F]` — result for “normalised enrichment score”: 9.45.
